Measurements from different studies.
Several values in a cell are separate wells, animals, samples, runs or records. Numbers after ± are the reported error.
Nuclear receptor subfamily 2 group C member 2 ligand-binding domain: Nuclear receptor subfamily 2 group C member 2, ligand-binding domain (Homo sapiens, UniProt P49116)
Chain of UniProt P27361 (whole entry, looked up): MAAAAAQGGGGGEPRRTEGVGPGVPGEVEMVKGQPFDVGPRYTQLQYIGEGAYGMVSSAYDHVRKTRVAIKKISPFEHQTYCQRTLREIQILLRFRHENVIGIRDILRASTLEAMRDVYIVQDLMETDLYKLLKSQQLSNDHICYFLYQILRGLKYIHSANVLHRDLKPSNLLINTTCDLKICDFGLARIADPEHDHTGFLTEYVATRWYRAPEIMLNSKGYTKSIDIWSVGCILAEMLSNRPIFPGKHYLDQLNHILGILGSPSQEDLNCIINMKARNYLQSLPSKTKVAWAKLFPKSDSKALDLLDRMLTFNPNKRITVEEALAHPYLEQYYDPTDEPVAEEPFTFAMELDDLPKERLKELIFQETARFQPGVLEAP
Chain of UniProt P49116 (whole entry, looked up): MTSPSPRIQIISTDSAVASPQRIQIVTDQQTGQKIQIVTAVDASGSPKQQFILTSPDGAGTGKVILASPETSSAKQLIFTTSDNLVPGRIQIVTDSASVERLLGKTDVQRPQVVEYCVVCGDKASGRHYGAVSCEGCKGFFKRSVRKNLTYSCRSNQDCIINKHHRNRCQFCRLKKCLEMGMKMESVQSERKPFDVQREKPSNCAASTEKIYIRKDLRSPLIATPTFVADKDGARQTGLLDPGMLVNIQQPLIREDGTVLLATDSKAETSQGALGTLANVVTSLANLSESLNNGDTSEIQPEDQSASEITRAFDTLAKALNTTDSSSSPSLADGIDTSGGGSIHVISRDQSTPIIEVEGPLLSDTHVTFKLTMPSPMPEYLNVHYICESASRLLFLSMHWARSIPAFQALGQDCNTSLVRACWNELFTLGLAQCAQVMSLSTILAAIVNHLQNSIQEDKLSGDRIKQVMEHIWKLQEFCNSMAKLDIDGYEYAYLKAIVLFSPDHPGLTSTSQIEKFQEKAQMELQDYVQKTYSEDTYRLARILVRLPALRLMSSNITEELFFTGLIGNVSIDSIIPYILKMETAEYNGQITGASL
Chain of UniProt P51957 (whole entry, looked up): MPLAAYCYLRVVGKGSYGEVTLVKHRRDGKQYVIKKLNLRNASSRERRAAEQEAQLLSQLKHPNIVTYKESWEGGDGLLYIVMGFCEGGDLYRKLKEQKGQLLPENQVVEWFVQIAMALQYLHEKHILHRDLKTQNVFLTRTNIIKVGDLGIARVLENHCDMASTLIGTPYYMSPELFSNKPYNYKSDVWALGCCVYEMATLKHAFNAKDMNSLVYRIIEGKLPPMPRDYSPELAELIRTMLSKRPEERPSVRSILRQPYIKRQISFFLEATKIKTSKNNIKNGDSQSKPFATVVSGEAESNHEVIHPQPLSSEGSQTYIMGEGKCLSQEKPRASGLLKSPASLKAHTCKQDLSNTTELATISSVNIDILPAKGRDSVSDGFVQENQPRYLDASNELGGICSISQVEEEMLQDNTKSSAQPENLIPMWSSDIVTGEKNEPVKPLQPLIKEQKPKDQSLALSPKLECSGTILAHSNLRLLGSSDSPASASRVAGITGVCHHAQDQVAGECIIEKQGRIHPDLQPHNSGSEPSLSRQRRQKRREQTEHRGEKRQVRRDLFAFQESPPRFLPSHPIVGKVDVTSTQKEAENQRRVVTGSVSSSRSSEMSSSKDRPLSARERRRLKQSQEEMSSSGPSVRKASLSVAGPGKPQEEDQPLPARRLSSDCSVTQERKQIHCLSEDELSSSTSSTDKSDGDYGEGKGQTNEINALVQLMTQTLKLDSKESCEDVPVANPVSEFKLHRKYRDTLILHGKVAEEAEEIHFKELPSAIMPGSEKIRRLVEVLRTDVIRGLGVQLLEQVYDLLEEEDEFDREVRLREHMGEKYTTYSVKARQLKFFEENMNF
Chain of UniProt Q29495 (whole entry, looked up): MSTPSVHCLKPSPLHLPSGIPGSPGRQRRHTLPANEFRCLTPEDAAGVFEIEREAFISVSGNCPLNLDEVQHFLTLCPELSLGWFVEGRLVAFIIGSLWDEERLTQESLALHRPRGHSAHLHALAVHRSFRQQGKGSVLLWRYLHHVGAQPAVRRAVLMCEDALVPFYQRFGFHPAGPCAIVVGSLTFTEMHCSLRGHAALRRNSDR
Chain of UniProt P04746 (whole entry, looked up): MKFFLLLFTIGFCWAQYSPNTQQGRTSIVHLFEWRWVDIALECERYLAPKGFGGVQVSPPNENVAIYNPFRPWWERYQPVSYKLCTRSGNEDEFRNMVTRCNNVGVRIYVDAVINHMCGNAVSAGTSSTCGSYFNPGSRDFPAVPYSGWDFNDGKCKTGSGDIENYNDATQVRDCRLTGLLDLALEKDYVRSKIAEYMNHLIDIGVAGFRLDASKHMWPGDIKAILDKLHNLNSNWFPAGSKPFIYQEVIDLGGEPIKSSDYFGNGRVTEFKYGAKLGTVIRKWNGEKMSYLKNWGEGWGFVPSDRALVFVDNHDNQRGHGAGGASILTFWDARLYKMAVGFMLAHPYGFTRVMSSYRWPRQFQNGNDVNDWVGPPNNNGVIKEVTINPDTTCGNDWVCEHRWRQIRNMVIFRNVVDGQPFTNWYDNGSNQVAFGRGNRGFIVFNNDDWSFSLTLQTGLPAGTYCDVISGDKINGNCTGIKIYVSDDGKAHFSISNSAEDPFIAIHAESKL
Chain of UniProt P46100 (whole entry, unmodified, looked up): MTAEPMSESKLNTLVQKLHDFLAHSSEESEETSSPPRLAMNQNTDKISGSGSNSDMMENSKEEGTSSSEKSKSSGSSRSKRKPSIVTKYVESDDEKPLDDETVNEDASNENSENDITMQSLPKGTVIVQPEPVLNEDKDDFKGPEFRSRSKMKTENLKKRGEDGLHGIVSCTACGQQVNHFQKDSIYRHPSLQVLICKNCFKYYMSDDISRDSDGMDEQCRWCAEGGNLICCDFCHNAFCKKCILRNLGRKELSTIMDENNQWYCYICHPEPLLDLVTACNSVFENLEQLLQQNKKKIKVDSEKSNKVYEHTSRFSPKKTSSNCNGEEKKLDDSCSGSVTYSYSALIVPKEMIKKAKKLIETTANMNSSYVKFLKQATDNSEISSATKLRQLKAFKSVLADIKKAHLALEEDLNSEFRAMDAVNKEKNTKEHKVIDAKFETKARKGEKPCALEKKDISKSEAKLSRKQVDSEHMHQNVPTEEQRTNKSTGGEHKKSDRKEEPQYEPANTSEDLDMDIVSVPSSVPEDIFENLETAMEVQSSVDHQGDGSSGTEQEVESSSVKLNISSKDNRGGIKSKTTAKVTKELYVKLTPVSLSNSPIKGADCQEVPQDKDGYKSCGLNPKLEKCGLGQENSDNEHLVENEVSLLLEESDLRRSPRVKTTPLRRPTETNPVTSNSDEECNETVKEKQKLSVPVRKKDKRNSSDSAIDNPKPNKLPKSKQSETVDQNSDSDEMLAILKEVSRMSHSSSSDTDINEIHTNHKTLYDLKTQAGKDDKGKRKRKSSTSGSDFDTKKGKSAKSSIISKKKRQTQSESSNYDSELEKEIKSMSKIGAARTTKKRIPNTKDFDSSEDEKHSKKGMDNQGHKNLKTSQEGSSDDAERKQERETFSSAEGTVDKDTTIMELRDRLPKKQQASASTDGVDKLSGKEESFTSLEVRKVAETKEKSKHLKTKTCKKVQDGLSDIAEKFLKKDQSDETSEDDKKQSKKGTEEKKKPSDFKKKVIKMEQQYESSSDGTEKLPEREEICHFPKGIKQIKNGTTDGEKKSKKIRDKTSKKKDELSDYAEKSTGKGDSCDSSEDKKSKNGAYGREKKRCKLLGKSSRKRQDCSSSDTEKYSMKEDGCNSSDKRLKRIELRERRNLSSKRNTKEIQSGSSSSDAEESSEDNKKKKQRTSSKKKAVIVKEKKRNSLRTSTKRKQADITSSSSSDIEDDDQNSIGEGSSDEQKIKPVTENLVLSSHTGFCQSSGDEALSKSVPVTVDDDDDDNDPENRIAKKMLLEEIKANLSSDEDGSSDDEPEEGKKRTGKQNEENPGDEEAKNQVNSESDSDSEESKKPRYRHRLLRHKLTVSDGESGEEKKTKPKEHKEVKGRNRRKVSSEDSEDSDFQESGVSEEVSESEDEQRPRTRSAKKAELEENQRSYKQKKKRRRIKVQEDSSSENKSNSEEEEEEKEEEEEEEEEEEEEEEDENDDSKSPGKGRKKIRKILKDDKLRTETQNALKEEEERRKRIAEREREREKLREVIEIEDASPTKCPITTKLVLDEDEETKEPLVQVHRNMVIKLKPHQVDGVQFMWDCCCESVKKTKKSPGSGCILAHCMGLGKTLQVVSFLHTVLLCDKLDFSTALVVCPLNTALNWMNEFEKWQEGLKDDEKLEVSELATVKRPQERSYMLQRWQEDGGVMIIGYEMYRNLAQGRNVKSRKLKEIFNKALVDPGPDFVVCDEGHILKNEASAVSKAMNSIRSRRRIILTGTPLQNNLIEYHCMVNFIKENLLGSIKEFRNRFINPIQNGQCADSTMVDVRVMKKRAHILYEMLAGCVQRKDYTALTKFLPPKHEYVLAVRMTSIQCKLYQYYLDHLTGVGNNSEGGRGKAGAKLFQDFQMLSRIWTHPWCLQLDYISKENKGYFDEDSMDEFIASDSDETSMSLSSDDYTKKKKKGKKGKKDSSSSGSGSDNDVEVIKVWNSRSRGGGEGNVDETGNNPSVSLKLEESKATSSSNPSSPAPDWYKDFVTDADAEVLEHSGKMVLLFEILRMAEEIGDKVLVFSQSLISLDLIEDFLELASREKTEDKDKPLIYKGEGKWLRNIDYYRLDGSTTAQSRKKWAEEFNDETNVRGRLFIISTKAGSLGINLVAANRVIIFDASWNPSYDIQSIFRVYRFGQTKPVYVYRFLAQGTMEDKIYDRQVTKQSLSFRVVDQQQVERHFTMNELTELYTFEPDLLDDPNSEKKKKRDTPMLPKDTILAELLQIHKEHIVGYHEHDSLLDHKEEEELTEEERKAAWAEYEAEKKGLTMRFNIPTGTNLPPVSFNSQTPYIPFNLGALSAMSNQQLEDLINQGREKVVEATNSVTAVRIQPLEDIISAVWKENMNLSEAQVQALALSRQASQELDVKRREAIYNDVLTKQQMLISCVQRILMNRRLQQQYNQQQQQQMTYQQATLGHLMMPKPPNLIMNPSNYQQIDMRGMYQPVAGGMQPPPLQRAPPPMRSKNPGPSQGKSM

| Compound | tested on | assay | test system | conditions | how to read | quantity | result |
| --- | --- | --- | --- | --- | --- | --- | --- |
| Cc1n[nH]c2ccc(-c3cc(OC[C@@H](N)Cc4ccccc4)cnc3-c3ccoc3)cc12 | Serine/threonine-protein kinase CBK1 (CBK1, Candida albicans, UniProt Q5AP53) | kinase binding, competitor, MIB/MS competition, refers to: CBK1 | Candida albicans cell lysate | 10 µM | baseline: DMSO | log2 fold change | -0.759 |
| CN[C@@H]1[C@H](O)[C@H](NC)[C@H]2O[C@@]3(O)C(=O)C[C@@H](C)O[C@H]3O[C@@H]2[C@H]1O.Cl.Cl.O.O.O.O.O | Nuclear receptor subfamily 2 group C member 2 ligand-binding domain | SPR imaging |  | 600 nM |  | koff | 3.06e-07 s⁻¹ |
| COc1c(O)c(C)cc2c1C(=O)c1c(cc(O)c(O)c1O)C2=O | HepaRG co-cultured with HK-2 | MTT |  | 33.33 µM, 48 h | baseline: untreated control | cell viability | 89.2 ± 9.48% |
| Nc1[nH]nc2nnc(-c3c(-c4ccccc4)nn4ccccc34)cc12 | MAPK3 (Homo sapiens, UniProt P27361) | ADP-Glo |  | 1.38 nM, added: MBP substrate |  | kinase activity | 78.5% and 116% and 95.5% |
| CC(=C/C(=O)O)/C=C/C=C(\C)C1C=C2C(C)(C)CCCC2(C)O1 (centres unmarked) | Rhodopsin (RHO, Homo sapiens, UniProt P08100, T17M) | ER retention, immunostaining co-localization, refers to: opsin with calnexin | COS-7 transfected T17M | 1.00 µM |  | Pearson correlation coefficient | 0.71 |
| CCCC[C@H]1CN(c2ccccc2)C(=O)CN1Cc1cncn1Cc1ccc(Br)cc1 | Cryptococcus neoformans farnesyltransferase | enzyme activity, inhibitor, fluorescence |  | added: 1 µM FPP, 0.5 µM dansylated peptide |  | IC50 | 920 ± 510 nM |
| C1=C/COCc2cc(ccc2OCCN2CCCC2)Nc2nccc(n2)-c2cccc(c2)COC/1 | CDK14 (Homo sapiens, UniProt O94921) |  |  | concentration not given, gene name PFTK1 |  | percent of control | 87% |
| COc1c(O)c(C)cc2c1C(=O)c1c(O)cccc1C2=O | HepaRG co-cultured with HK-2 | MTT |  | 66.67 µM, 48 h | baseline: untreated control | cell viability | 46.5 ± 3.62% |
| C=CC(=O)N1CCC(COCC(=O)N2CCN(c3nc(-c4cnc(N)nc4C(F)F)nc(N4CCOC[C@@H]4C)n3)CC2)CC1 | NEK4 (Homo sapiens, UniProt P51957) | KINOMEscan |  | 1 µM |  | remaining binding | 94% |
| C[C@H](N)C(=O)N[C@@H](CCCNC(=N)N)C(=O)N[C@H](C(=O)N[C@@H](CCCCN)C(=O)N[C@@H](CCC(N)=O)C(=O)N[C@H](C(=O)N[C@@H](C)C(=O)N[C@@H](CCCNC(=N)N)C(=O)N[C@@H](CCCCN)C(=O)N[C@@H](CO)C(=O)O)[C@@H](C)O)[C@@H](C)O | Transcriptional regulator ATRX (ATRX, Homo sapiens, UniProt P46100, F284Y/K251R) | isothermal titration calorimetry |  | concentration not given, pH 7.5, 25.0 °C |  | binding enthalpy | -4.91 kcal/mol |
| O=c1c(O)c(-c2cc(O)c(O)c(O)c2)oc2cc(O)cc(O)c12 | Serotonin N-acetyltransferase (Ovis aries, UniProt Q29495) | enzyme activity, inhibitor |  | concentration not given, added: acetyl-CoA |  | activity class | active |
| CCN1CCN(c2cc(N3CCN(CC)CC3)nc(NCCNc3ccnc4cc(Cl)ccc34)n2)CC1 | COS-7 |  |  | 30 µM, 24 h, 0.1% DMSO, unit not given | baseline: vehicle control | confluence | 0.3 ± 0.06 |
| CCCCC[S+]([O-])c1n[nH]c(N)n1 (centres unmarked) | YTH domain-containing protein 1 (Homo sapiens, UniProt Q96MU7) | binding, affinity selection mass spectrometry |  |  | baseline: other proteins in batch | log fold enrichment | -0.262 |
| Oc1ccc(OCc2ccccc2)cc1 | Nuclear receptor subfamily 2 group C member 2 ligand-binding domain | SPR imaging |  | 600 nM |  | koff | 6.42e-05 s⁻¹ |
| O=c1nc(SCc2ccc(C(F)(F)F)cc2)nc(SCc2csc3ccc(Cl)cc23)[nH]1 | TOP2A (Homo sapiens, UniProt P11388) | decatenation |  | 0.12 µM, replicate 1 |  | decatenated DNA | 0% |
| CC[C@H](C)[C@@H]1NC(=O)[C@H](C)NC(=O)[C@H]([C@@H](C)CC)NC(=O)[C@H](CCC(N)=O)NC(=O)[C@H](C)NC(=O)[C@H](CCCNC(=N)N)NC(=O)[C@H](C(C)C)NC(=O)[C@H](CC(C)C)NC(=O)[C@H](CCC(=O)O)NC(=O)[C@H](CCCNC(=N)N)NC(=O)CNC(=O)[C@@H](NC(=O)[C@H](CC(C)C)NC(=O)[C@H](CCCCN)NC(=O)[C@@H](NC(=O)[C@@H](NC(=O)[C@H](CCC(=O)O)NC(=O)[C@H](CCC(=O)O)NC(=O)[C@H](CCSC)NC(=O)[C@H](Cc2c[nH]c3ccccc23)NC(=O)[C@H](CO)NC(=O)[C@@H](N)CC(=O)O)C(C)C)[C@@H](C)CC)CSSC[C@@H]2NC(=O)[C@@H](NC(=O)[C@H](CCCCN)NC(=O)[C@H](CC(N)=O)NC(=O)[C@H](C)NC(=O)[C@H](CC(C)C)NC(=O)[C@H](C)NC(=O)[C@H](CO)NC(=O)[C@H](Cc3ccc(O)cc3)NC(=O)[C@H](CC(C)C)NC(=O)[C@H](CCC(N)=O)NC(=O)c3ccc(-c4c5ccc(=[N+](C)C)cc-5oc5cc(N(C)C)ccc45)c(C(=O)[O-])c3)CSSC[C@H](NC(=O)CNC(=O)[C@H](C(C)C)NC(=O)[C@H](Cc3c[nH]cn3)NC2=O)C(=O)N[C@@H]([C@@H](C)O)C(=O)N[C@@H](CCCCN)C(=O)N[C@@H](CCCNC(=N)N)C(=O)N[C@@H](CO)C(=O)N[C@@H](CC(C)C)C(=O)N[C@@H](C)C(=O)N[C@@H](CCCNC(=N)N)C(=O)N[C@@H](Cc2ccccc2)C(=O)N[C@H](C(=O)O)CSSC[C@@H](C(=O)NCC(=O)N[C@@H](CCSC)C(=O)N[C@@H](CO)C(=O)N[C@H](C(=O)N[C@@H](Cc2c[nH]c3ccccc23)C(=O)N[C@@H](CO)C(=O)O)[C@@H](C)O)NC1=O | Relaxin receptor 1 (RXFP1, Homo sapiens, UniProt Q9HBX9) | binding, NanoBRET |  | added: relaxin 10 nM |  | dissociation plateau | 23.9% |
| CC(=O)NCCCC[C@H](NC(=O)CNC(=O)CNC(=O)[C@H](CCCCNC(C)=O)NC(=O)CNC(=O)[C@H](CCCNC(=N)N)NC(=O)CNC(=O)[C@@H](N)CO)C(=O)NCC(=O)N[C@@H](CC(C)C)C(=O)NCC(N)=O | BRD1 (Homo sapiens, UniProt O95696, R585F) | binding, ITC |  | 15 °C, added: peptide 2 mM |  | TΔS | 0.297 kcal/mol |
| C[S+](CC[C@H](N)C(=O)[O-])C[C@H]1O[C@@H](n2cnc3c(N)ncnc32)[C@H](O)[C@@H]1O (some centres unmarked) | KMT2C (Homo sapiens, UniProt Q8NEZ4) | substrate, enzyme-coupled methylation |  | added: H3 peptide 25 µM |  | apparent Vmax | 0.2 ± 0.07 µM/min |
| Clc1ccc(C(c2c[nH]c3ccccc23)c2c[nH]c3ccccc23)cc1 | COS-7 |  |  | 10 µM, 24 h, 0.1% DMSO, unit not given | baseline: vehicle control | necrotic cells | 2.67 ± 0.2 |
| O=C1OC(c2ccccc2)=N/C1=C\c1cccc(O)c1 | Pancreatic alpha-amylase (Homo sapiens, UniProt P04746) | inhibitor, Lineweaver-Burk |  | 100 ppm, added: starch substrate |  | Km | 1380 µM |

Some of these lines once more:
| Compound | tested on | assay | test system | conditions | how to read | quantity | result |
| --- | --- | --- | --- | --- | --- | --- | --- |
| COc1c(O)c(C)cc2c1C(=O)c1c(cc(O)c(O)c1O)C2=O | HepaRG co-cultured with HK-2 | MTT |  | 33.33 µM, 48 h | baseline: untreated control | cell viability | 89.2 ± 9.48% |
| O=c1c(O)c(-c2cc(O)c(O)c(O)c2)oc2cc(O)cc(O)c12 | Serotonin N-acetyltransferase (Ovis aries, UniProt Q29495) | enzyme activity, inhibitor |  | concentration not given, added: acetyl-CoA |  | activity class | active |
| O=C1OC(c2ccccc2)=N/C1=C\c1cccc(O)c1 | Pancreatic alpha-amylase (Homo sapiens, UniProt P04746) | inhibitor, Lineweaver-Burk |  | 100 ppm, added: starch substrate |  | Km | 1380 µM |
